Results pooled from the literature.
Every numbered part comes from another study and shows a few of its results, in no order. Changes are numbered by the printed parent chain.

Study 1
Target: RING finger protein unkempt homolog, zinc fingers 1-6, GST-SBP tag (UNK, Homo sapiens, UniProt Q9C0B0, residues 30-357)
Sequence of UniProt Q9C0B0 (30-357, looked up): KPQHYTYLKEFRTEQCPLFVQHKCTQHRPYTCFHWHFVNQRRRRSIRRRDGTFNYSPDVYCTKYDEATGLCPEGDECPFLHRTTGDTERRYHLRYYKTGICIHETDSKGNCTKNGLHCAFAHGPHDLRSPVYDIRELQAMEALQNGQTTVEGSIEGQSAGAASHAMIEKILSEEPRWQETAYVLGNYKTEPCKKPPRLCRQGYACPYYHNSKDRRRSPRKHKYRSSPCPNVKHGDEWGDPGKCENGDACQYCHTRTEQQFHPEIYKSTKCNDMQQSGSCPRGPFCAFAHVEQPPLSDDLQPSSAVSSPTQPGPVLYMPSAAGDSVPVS
Method: RNA Bind-n-Seq
Form: RNA
Sample: in vitro
Concentration: not given
Setting: RNA with constant flanks, human-mouse chimeric sites, ends assumed
Reference: input RNA pool
Reading: higher = stronger binding
The bound/input enrichment of `GGGAGUUCUACAGUCCGACGAUCUGUGCAUUAUGAUGCUUAGAUGGUUUUUGCAAAAGCAGACAUCGCUGCAAGGUAAUCACAAUAGAUAAAAGUGGUAUUUUAAACCUUUGAAAUAAAUGGAUGUAACUGUACCUUGGUACACAACAGAGGAUUGAGCAUCA` is reported as 0.676 ratio.
With `GGGAGUUCUACAGUCCGACGAUCGUGUCCUGCUUUCAACUUAAAUCACUGAGGCAUCUCUACUGUUCUGUGAGCAUCAGGACUGUAGCGCUUGCCACCACCAGAUGAGAACAGAAGCAGCCUUUCUGUGGAGGGUGGGAAUGACAACAGAGGAUUGAGCAUCA` the bound/input enrichment was 0.159 ratio.
`GGGAGUUCUACAGUCCGACGAUCAUUGUUGAAGCGAAUCCACUUUUAGAAGCAUUUGGAAAUGCGAAGACUGUUCGCAACAAUAAUAGCAGUCGAUUUGGAAAAUUUGUAGAAAUUCAUUUUAAUGAAAAGAGUUCGGUUGUUCAACAGAGGAUUGAGCAUCA` gave a bound/input enrichment of 0.677 ratio.
`GGGAGUUCUACAGUCCGACGAUCAGAUUCCCCCUCCUGAGACCUCCUCCGAAGUUGGAGUCUCUUACAGAUGCCUCAUCCCCUGUUAGUAUUUUAGUUUGGACCACCCAGCCUUGGACAAUUCCAGCCAACCAGGCAAUUUGCCAACAGAGGAUUGAGCAUCA` has a bound/input enrichment of 3.86 ratio.

Study 2
Target: CCNB1, cyclin fold, Cln2 fusion (human)
Method: yeast growth competition, sequencing
Sample: yeast
Setting: weak parent motif
Reference: not given
Reading: higher = stronger binding
Starting sequence: GMNC docking peptide (human); KNAKRNLSSEFAN
`KKAKRNLSSEFAN [N2K]` — result for “normalised enrichment score”: 0.467.
`KNNKRNLSSEFAN [A3N]` — result for “normalised enrichment score”: 0.285.
`KNFKRNLSSEFAN [A3F]`: “normalised enrichment score” 0.397.
For `KNAKRNLSSEWAN [F11W]`, “normalised enrichment score” read 0.449.
For `KNAKRNLSPEFAN [S9P]`, “normalised enrichment score” read 0.268.
`KNGKRNLSSEFAN [A3G]`: “normalised enrichment score” 0.221.
`KNAKRNNSSEFAN [L7N]` — result for “normalised enrichment score”: 0.792.

Study 3
Target: Histone acetyltransferase KAT6A, winged helix 2, GST fusion (KAT6A, Homo sapiens, UniProt Q92794, residues 85-181)
Method: protein binding microarray
Form: double-stranded DNA, one strand shown
Sample: in vitro
Concentration: not given
Setting: 8-mer, flanks averaged, mean of 2 arrays, mostly near background
Reference: not given
Reading: higher = stronger binding
Target sequence (chain): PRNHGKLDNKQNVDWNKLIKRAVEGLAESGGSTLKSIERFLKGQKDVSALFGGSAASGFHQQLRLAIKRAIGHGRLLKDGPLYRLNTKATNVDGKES
The E-score of `AGCTGCAC` is reported as 0.0114.
With `GTACTATA` the E-score was -0.166.
For `AGTTGAAC`, the E-score was -0.0788.
`GAACCTTA` gave an E-score of 0.135.
With `AAACGAAA` the E-score was 0.081.
`AAAGGGAG` gave an E-score of -0.0488.
With `AATGAAGA` the E-score was 0.0937.
For `AAGGGACT`, the E-score was -0.0937.
`CAAGCAGC` gave an E-score of -0.0892.
With `ACGCAAAT` the E-score was -0.0411.

Single results of other studies
With `PhoQ, residues 284 288 289 292 302 303 ASSHFY` the fold induction was 1.07 (PhoP, residues 12 14 15 18 19 SGWQI (Escherichia coli, UniProt P23836); Sort-seq, refers to: YFP reporter; E. coli; PhoQ-PhoP variant library, together with: 10 µM Mg2+; reference: high Mg2+ state, higher = stronger signaling).

Excerpt of the above (study 3):
With `GTACTATA` the E-score was -0.166.
With `AAACGAAA` the E-score was 0.081.
`CAAGCAGC` gave an E-score of -0.0892.
